Assay results gathered from unrelated publications.
Each line is one published result; not all experiments were run side by side. “And” joins repeats or separate records; there may be more than shown. ± marks the error that the study gave.

Compound = C[C@H](O)[C@@H](NC(=O)[C@H]1CCCN1C(=O)[C@@H](CCCCN)NC(=O)[C@@H](CO)NC(=O)[C@@H](Cc1ccc(O)cc1)NC(=O)[C@@H](CC(N)=O)NC(=O)CCOCCOCCOCCNC(=O)CN1CCN(CC(=O)O)CCN(CC(=O)O)CCN(CC(=O)O)CC1)C(=O)N[C@H](CC(=O)O)C(=O)N[C@H](CCCNC(=N)N)C(=O)N[C@H](CCC(N)=O)C(=O)N[C@H](Cc1ccc(O)cc1)C(=O)N[C@H](Cc1c[nH]cn1)C(=O)N[C@H](Cc1ccccc1)C(N)=O [gallium-68 labelled]; system = BALB/c nude mice U-87 MG tumour, muscle; setting = intravenous, 1.85 MBq, 2 h, radiolabelled; endpoint = tissue uptake; result = 0.14 ± 0.04 %ID/g
Compound = CC[C@H](C)[C@H](NC(=O)[C@H](CCCCN)NC(=O)CNC(=O)[C@H](CC(C)C)NC(=O)[C@H](Cc1ccccc1)NC(=O)[C@H](CCCCN)NC(=O)[C@H](CO)NC(=O)[C@H](Cc1ccccc1)NC(=O)[C@H](Cc1c[nH]c2ccccc12)NC(=O)[C@H](CCC(N)=O)NC(=O)[C@@H](NC(=O)[C@H](Cc1ccccc1)NC(=O)CCCCCNC(=O)CN1CCN(CC(=O)O)CCN(CC(=O)O)CCN(CC(=O)O)CC1)C(C)C)C(=O)N[C@@H](CCC(=O)O)C(=O)N1CCC[C@H]1C(=O)N[C@@H](CC(=O)O)C(=O)N[C@H](C(=O)N[C@@H](CO)C(=O)N[C@@H](CCC(N)=O)C(=O)N[C@H](C(=O)N[C@@H](CCC(N)=O)C(=O)N[C@@H](CC(=O)O)C(=O)N1CCC[C@H]1C(=O)N[C@@H](CC(N)=O)C(=O)N[C@@H](CC(=O)O)C(=O)N[C@@H](CCC(N)=O)C(=O)N[C@@H](Cc1ccc(O)cc1)C(=O)N[C@@H](CCC(=O)O)C(=O)N1CCC[C@H]1C(=O)N[C@@H](Cc1ccccc1)C(=O)O)C(C)C)C(C)C [copper-64 labelled]; system = C57BL/6 mice, bone; setting = vehicle, intratracheal instillation; endpoint = tissue uptake; result = 0.73 ± 0.1 %ID/g
Compound = O=C1NC2(CC2)COc2ncc(F)cc2[C@H]2COCCN2c2ccn3ncc1c3n2; system = Sprague-Dawley rat, male, serum; setting = oral, 2.5 mg/kg/day, end of treatment, 4-week subacute toxicity; endpoint = serum potassium; result = 4.44 ± 0.18 mmol/L
Compound = N=C(N)NCCC[C@@H](NC(=O)[C@H](N)Cc1c[nH]c2ccccc12)C(=O)N[C@H](CCCCN)C(=O)N[C@H](Cc1c[nH]c2ccccc12)C(=O)N[C@H](CCCNC(=N)N)C(=O)N[C@H](CCCCN)C(=O)N[C@H](Cc1c[nH]c2ccccc12)C(=O)N[C@H](CCCNC(=N)N)C(=O)N[C@H](CCCCN)C(=O)N[C@H](Cc1c[nH]c2ccccc12)C(=O)N[C@H](CCCNC(=N)N)C(=O)N[C@H](CCCCN)C(N)=O; system = mouse; setting = intraperitoneal, 30 mg/kg single dose, day 1; endpoint = survival; result = 100%
Compound = COc1cnc2cccc(N3CCc4c(cc(Cn5ccnc5)cc4-c4cn(C)nc4C(F)(F)F)C3=O)c2c1; system = BALB/c nude mice, MV4-11 xenograft; setting = intraperitoneal, 75 mg/kg, day 28; endpoint = body weight; result = 22.2 g and 23 g and 21.5 g and 23.8 g and 23.1 g and 23.2 g and 26 g
Compound = COc1c(N2CC3CCCNC3C2)c(F)cc2c(=O)c(C(=O)OCc3cnc([N+](=O)[O-])n3C)cn(C3CC3)c12 (stereo not drawn); assay = cyclic voltammetry; system = anhydrous acetonitrile; setting = concentration not given; scale = baseline: Ag/AgCl; endpoint = reduction potential; result = -0.95 V
Compound = CC1(C)C(=O)N(c2ccc(C#N)c(C(F)(F)F)c2)C(=S)N1c1ccc(C(=O)O)c(F)c1; system = human, male, plasma; setting = oral, 80 mg, single dose, fasting; endpoint = AUC(0-t); result = 24000 ± 4330 ng·h/mL
Compound = O=C(O)/C=C\c1ccc2occc2c1O[C@@H]1O[C@H](CO)[C@@H](O)[C@H](O)[C@H]1O; system = rat, plasma; setting = oral, dose not given, dosed as combined Eu and Pc extracts; scale = baseline: single extracts; endpoint = Cmax decrease; result = 153 ± 84.8 ng/mL
Compound = CC(C)C[C@H](NC(=O)[C@H](Cc1ccc(O)cc1)NC(=O)[C@H](Cc1c[nH]cn1)NC(=O)[C@@H](NC(=O)[C@H](CC(C)C)NC(=O)[C@H](C)NC(=O)[C@H](C)NC(=O)[C@H](CCCCN)NC(=O)CNC(=O)[C@@H](NC(=O)[C@H](Cc1c[nH]cn1)NC(=O)[C@H](CCCCN)NC(=O)CNC(=O)[C@@H](NC(=O)[C@H](Cc1c[nH]cn1)NC(=O)[C@H](C)NC(=O)[C@H](C)NC(=O)[C@H](CCCCN)NC(=O)[C@H](CCCCN)NC(=O)[C@H](Cc1ccccc1)NC(=O)[C@H](Cc1ccccc1)NC(=O)[C@H](CO)NC(=O)CNC(=O)[C@H](Cc1c[nH]c2ccccc12)NC(=O)CN)C(C)C)C(C)C)[C@@H](C)O)C(N)=O; system = zebrafish embryos 4 hpf, E3 medium; setting = 1 h; endpoint = acute toxic concentration; result = 5 µM
Compound = CC(C)[C@H](NC(=O)[C@@H](NC(=O)[C@H](CCCNC(=N)N)NC(=O)[C@H](CCCNC(=N)N)NC(=O)[C@H](CCCNC(=N)N)NC(=O)[C@H](CCC(N)=O)NC(=O)[C@H](CCCNC(=N)N)NC(=O)[C@H](CCCNC(=N)N)NC(=O)[C@H](CCCCN)NC(=O)[C@H](CCCCN)NC(=O)[C@H](CCCNC(=N)N)NC(=O)CN)[C@@H](C)O)C(=O)N[C@H](C(=O)N[C@@H](CO)C(=O)N1CCC[C@H]1C(=O)O)[C@@H](C)O; system = ICR mouse, female, right kidney; setting = intranasal, 5 mg/kg daily, 4 weeks; endpoint = kidney weight; result = 0.216 ± 0.023 g
Compound = C=CC(=O)Nc1cccc(Cn2ncc3cnc(Nc4cnn(CCOC)c4)nc32)c1; system = female Sprague-Dawley rat; setting = oral, 180 mg/kg/day, day 28, 28-day subacute toxicity; endpoint = serum TG; result = 0.53 ± 0.45 mM
Compound = CC[C@H](C)[C@H](NC(=O)CNC(=O)[C@H](CCSC)NC(=O)[C@H](CCC(N)=O)NC(=O)[C@H](C)NC(=O)[C@H](CCC(N)=O)NC(=O)[C@@H](NC(=O)[C@H](CC(C)C)NC(=O)[C@H](C)NC(=O)[C@H](CO)NC(=O)[C@H](CCSC)NC(=O)[C@H](CCC(=O)O)NC(=O)[C@H](CC(C)C)NC(=O)[C@H](Cc1ccc(O)cc1)NC(=O)[C@H](CO)NC(=O)[C@H](CCC(=O)O)NC(=O)[C@H](CCC(N)=O)NC(=O)[C@H](CCCNC(=N)N)NC(=O)[C@H](CCCCN)NC(=O)[C@H](CC(=O)O)NC(=O)[C@H](CC(C)C)NC(=O)[C@H](CC(N)=O)NC(=O)[C@H](Cc1ccccc1)NC(=O)[C@H](CCC(=O)O)NC(=O)[C@H](CCCCN)NC(=O)[C@@H](NC(=O)[C@H](CC(C)C)NC(=O)[C@H](CCC(=O)O)NC(=O)[C@H](CCC(=O)O)NC(=O)[C@@H](NC(=O)[C@@H](NC(=O)[C@H](CCCNC(=N)N)NC(=O)[C@H](CCCCN)NC(=O)[C@H](C)NC(=O)[C@H](Cc1ccccc1)NC(=O)[C@H](CCC(=O)O)NC(=O)[C@H](CCC(=O)O)NC(=O)[C@H](CC(C)C)NC(=O)[C@@H](N)CO)C(C)C)C(C)C)C(C)C)[C@@H](C)CC)C(=O)N[C@@H](CO)C(=O)N[C@@H](CCC(=O)O)C(=O)N[C@@H](CCCNC(=N)N)C(=O)N[C@H](C(=O)N[C@H](C(=O)N[C@@H](CCC(=O)O)C(=O)N[C@H](C(=O)N[C@H](C(=O)N[C@@H](CC(C)C)C(=O)N[C@@H](CCCNC(=N)N)C(=O)N[C@@H](Cc1c[nH]cn1)C(=O)N[C@@H](C)C(=O)N[C@@H](C)C(=O)N[C@@H](CCC(N)=O)C(=O)N[C@H](C(=O)N[C@@H](CC(C)C)C(=O)N[C@@H](CCCCN)C(=O)O)[C@@H](C)O)C(C)C)[C@@H](C)CC)[C@@H](C)CC)[C@@H](C)CC; system = CD-1 ICR mouse, male, plasma; setting = intravenous, 1 mg/kg; endpoint = Vss; result = 1.31 L/kg

Repeated from above:
Compound = C[C@H](O)[C@@H](NC(=O)[C@H]1CCCN1C(=O)[C@@H](CCCCN)NC(=O)[C@@H](CO)NC(=O)[C@@H](Cc1ccc(O)cc1)NC(=O)[C@@H](CC(N)=O)NC(=O)CCOCCOCCOCCNC(=O)CN1CCN(CC(=O)O)CCN(CC(=O)O)CCN(CC(=O)O)CC1)C(=O)N[C@H](CC(=O)O)C(=O)N[C@H](CCCNC(=N)N)C(=O)N[C@H](CCC(N)=O)C(=O)N[C@H](Cc1ccc(O)cc1)C(=O)N[C@H](Cc1c[nH]cn1)C(=O)N[C@H](Cc1ccccc1)C(N)=O [gallium-68 labelled]; system = BALB/c nude mice U-87 MG tumour, muscle; setting = intravenous, 1.85 MBq, 2 h, radiolabelled; endpoint = tissue uptake; result = 0.14 ± 0.04 %ID/g
